{"data": "Measured values gathered from unrelated publications", "note": "Every numbered part comes from another study and shows a few of its results, in no order. Substitutions count along the parent as printed."}
{"data": "Study 1", "target": "TAR DNA-binding protein 43, full length, His tag (TARDBP, Homo sapiens, UniProt Q13148, residues 1-414)", "method": "RNA Bind-n-Seq", "molecule type": "RNA", "medium": "in vitro", "tested at": "20 nM", "setting": "6-mer, flanks averaged, single round", "together with": "150 mM KCl", "baseline": "input library", "reading": "higher = stronger binding"}
{"Strand": "UGUUGC", "6-mer enrichment (R)": 0.815}
{"Strand": "UUAGCU", "6-mer enrichment (R)": 0.594}
{"Strand": "GAUUCG", "6-mer enrichment (R)": 0.783}
{"Strand": "CAGCAG", "6-mer enrichment (R)": 0.973}
{"Strand": "AGCGGU", "6-mer enrichment (R)": 1.44}
{"Strand": "UACUGU", "6-mer enrichment (R)": 0.632}
{"Strand": "AACAUC", "6-mer enrichment (R)": 0.582}
{"data": "Study 2", "target": "ABI1, truncated, D143A, DHFR fusion (Arabidopsis thaliana)", "method": "DHFR PCA, deep sequencing", "medium": "yeast", "setting": "methotrexate growth selection, single substitutions", "together with": "(+)-ABA 200 µM", "baseline": "wild-type fitted maximum", "reading": "higher = stronger binding", "starting sequence": "PYL1, truncated, DHFR fusion (Arabidopsis thaliana); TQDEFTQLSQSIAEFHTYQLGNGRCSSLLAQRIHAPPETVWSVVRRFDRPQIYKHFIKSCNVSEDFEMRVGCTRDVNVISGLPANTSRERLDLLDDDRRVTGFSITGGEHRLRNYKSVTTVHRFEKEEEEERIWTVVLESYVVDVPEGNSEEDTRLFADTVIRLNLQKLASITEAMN; partner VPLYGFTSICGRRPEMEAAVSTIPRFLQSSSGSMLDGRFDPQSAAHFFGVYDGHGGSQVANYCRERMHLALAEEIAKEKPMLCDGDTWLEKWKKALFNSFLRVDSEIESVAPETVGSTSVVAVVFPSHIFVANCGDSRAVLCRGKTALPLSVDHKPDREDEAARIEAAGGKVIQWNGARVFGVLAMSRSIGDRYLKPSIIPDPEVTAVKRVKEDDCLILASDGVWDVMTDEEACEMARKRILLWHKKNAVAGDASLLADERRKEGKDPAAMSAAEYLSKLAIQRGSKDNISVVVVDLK"}
{"Variant": "V143N", "relative binding score": "-9.54%"}
{"Variant": "L29H", "relative binding score": "100%"}
{"Variant": "H34D", "relative binding score": "103%"}
{"Variant": "T173Y", "relative binding score": "51%"}
{"Variant": "N114R", "relative binding score": "81.1%"}
{"Variant": "L138M", "relative binding score": "84.4%"}
{"data": "Study 3", "target": "Histone acetyltransferase KAT6A, winged helix 2, GST fusion (KAT6A, Homo sapiens, UniProt Q92794, residues 85-181)", "method": "protein binding microarray", "molecule type": "double-stranded DNA, one strand shown", "medium": "in vitro", "tested at": "not given", "setting": "8-mer, flanks averaged, mean of 2 arrays, mostly near background", "baseline": "not given", "reading": "higher = stronger binding", "Residues (chain)": "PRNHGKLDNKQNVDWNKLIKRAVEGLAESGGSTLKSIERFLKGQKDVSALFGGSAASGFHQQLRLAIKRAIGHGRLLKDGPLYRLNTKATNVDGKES"}
{"Strand": "CGCGACTA", "E-score": 0.116}
{"Strand": "ACGAGTGC", "E-score": -0.127}
{"Strand": "ACGCAGTC", "E-score": 0.0134}
{"Strand": "ACAGCATA", "E-score": 0.067}
{"Strand": "AGGAACTC", "E-score": -0.16}
{"Strand": "GAGACCAA", "E-score": -0.00965}
{"Strand": "GAAGACTA", "E-score": -0.11}
{"Strand": "AAGAAGAA", "E-score": 0.0782}
{"Strand": "GCGTGTCC", "E-score": 0.167}
{"Strand": "AACACCTG", "E-score": 0.0473}
{"Strand": "AGTCACGC", "E-score": -0.15}
{"data": "Other studies, line by line"}
{"Molecule": "PhoQ, residues 284 288 289 292 302 303 AEGLLW", "target": "PhoP, residues 12 14 15 18 19 FWNTL (Escherichia coli, UniProt P23836)", "assay": "Sort-seq, item: YFP reporter", "system": "E. coli", "conditions": "PhoQ-PhoP variant library, together with: 10 µM Mg2+", "scale": "baseline: high Mg2+ state, higher = stronger signaling", "endpoint": "fold induction", "value": 0.857}
{"note": "Some of these lines once more (study 2):"}
{"Variant": "V143N", "relative binding score": "-9.54%"}
{"Variant": "N114R", "relative binding score": "81.1%"}
{"Variant": "L29H", "relative binding score": "100%"}
{"Variant": "T173Y", "relative binding score": "51%"}
